{"data": "Results of several laboratories", "note": "Every numbered part comes from another study and shows a few of its results, in no order."}
{"data": "Block 1", "target": "RING finger protein unkempt homolog, zinc fingers 1-6, GST-SBP tag (UNK, Homo sapiens, UniProt Q9C0B0, residues 30-357)", "method": "RNA Bind-n-Seq", "form": "RNA", "medium": "in vitro", "concentration": "not given", "setting": "RNA with constant flanks, human-mouse chimeric sites, ends assumed", "reference": "input RNA pool", "reading": "higher = stronger binding", "shared flanks, not repeated": "GGGAGUUCUACAGUCCGACGAUC … CAACAGAGGAUUGAGCAUCA", "sequence of UniProt Q9C0B0 (30-357, looked up)": "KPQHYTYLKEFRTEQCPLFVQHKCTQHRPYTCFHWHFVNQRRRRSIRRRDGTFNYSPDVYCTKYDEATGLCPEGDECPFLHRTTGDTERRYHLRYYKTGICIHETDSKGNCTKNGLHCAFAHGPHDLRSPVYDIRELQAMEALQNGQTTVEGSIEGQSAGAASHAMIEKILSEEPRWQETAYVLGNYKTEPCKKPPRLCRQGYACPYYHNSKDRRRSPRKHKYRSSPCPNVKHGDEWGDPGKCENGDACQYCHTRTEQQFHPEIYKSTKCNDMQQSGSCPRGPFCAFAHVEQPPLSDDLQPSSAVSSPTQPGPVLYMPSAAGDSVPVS"}
{"Oligonucleotide": "GCAAAGGAUGAUGAGGCGGCAGCUGUUGCACUUUCCUCUCUCGUUCAUGCUUUGGAUGAGUUAAACAUGGUCGCCAUCGUCCGAUAUGCUUAUGACAAAAGAUCUAAUCCUCAAGUUGGU", "bound/input enrichment [ratio]": 0.195}
{"Oligonucleotide": "GGUGGGGGGUUGUCAUUCGUUUGAGCUGCUGAUUUUCUUAUGAAUCAUUCAAAACUCUCGUGUAGGGUUGACAAUGUGGGGGGGUGGGGGAUCCAGCUUAUUCUUUUAUUUUCAAGUCCA", "bound/input enrichment [ratio]": 0.985}
{"Oligonucleotide": "CCAAUUGUGGAGCAGUACUUGAAGACAAAGAAAAAUUCUAGUCAUUUAAUCAUCAAGUACAUUAGCUGCCGCCUGCUGACAUUUGUGAUUAUACUGUUAGCGUGUAUCUACCUGGGCUAU", "bound/input enrichment [ratio]": 0.403}
{"Oligonucleotide": "AGAUUCCCCCUCCUGAGACCUCCUCCGAAGUUGGAGUCUCUUACAGAUGCCUCAUCCCCUGUUAGCGUUUUAGUUUGGACCACACAACCUUGGACGAUUCCCGCCAACCAGGCAAUUUGC", "bound/input enrichment [ratio]": 1.77}
{"Oligonucleotide": "UCUGGUCACACUCGUGUGUAUGGUGUUUGCUUUGUGGACACUUCACUGGGCAAGUUUUUCAUCGGCCAGUUUUCGGAUGACCGCCACUGUUCGAGAUUUAGGACGCUAGUGGCACACUAU", "bound/input enrichment [ratio]": 0.193}
{"Oligonucleotide": "UAAGUUAUUUUGUACAGCUUUGUAAAUUCUUAACAUUUUUAUAUUGCACAUUUUAUGUUGUUUGGGUAAUUUGGUUCAUUAAGUACAUAGCUAAGGUAAUGAACAUCGUAAUUAUAGAUU", "bound/input enrichment [ratio]": 1.6}
{"Oligonucleotide": "CGGAGCCCCUCCCUCUCACAGGCCCAAGAUAUAACCCACCAGUGCCUUUUGUCUUCCCGUUAGCUUUGUCAAUCACGCCUGUCCUCUCACGCCCACACCAAGUGCCCAAAGUGGGGAGGG", "bound/input enrichment [ratio]": 8.69}
{"Oligonucleotide": "CUGUGACCACAAGAUCCUACCUGAGUGUUCAGAUGGGUUGACUCCCUCUCCUUGCCUGAACCCCCCCCCACUGCCCCCCCAUCCCCCAGUGUCGGCUGAGAUGUUGCCAGCAGACAGUUC", "bound/input enrichment [ratio]": 0.33}
{"data": "Block 2", "target": "Prothrombin, mature alpha-thrombin (F2, Homo sapiens, UniProt P00734)", "method": "aptamer microarray, sandwich", "form": "DNA with 2'F-ANA", "medium": "in vitro", "concentration": "200 nM", "setting": "whole 15-mer aptamer, many near background", "added": "Cy3 exosite-II aptamer, 400 nM", "reading": "higher = stronger binding", "oligonucleotide": "GGTTGGTGTGGTTGG"}
{"Modification": "2'F-ANA at 2 3 6 7 9 11 13", "mean fluorescence intensity": "512 a.u."}
{"Modification": "2'F-ANA at 7 8 9 10 12 13 14", "mean fluorescence intensity": "152 a.u."}
{"Modification": "2'F-ANA at 2 3 4 7 8 9 11 12", "mean fluorescence intensity": "843 a.u."}
{"Modification": "2'F-ANA at 3 4 8 9 10 11 12 13", "mean fluorescence intensity": "264 a.u."}
{"Modification": "2'F-ANA at 1 4 5 6 12 13 14 15", "mean fluorescence intensity": "65.7 a.u."}
{"Modification": "2'F-ANA at 4 6 10 15", "mean fluorescence intensity": "74.2 a.u."}
{"Modification": "2'F-ANA at 2 3 6 9 10 11 13 14", "mean fluorescence intensity": "223 a.u."}
{"Modification": "2'F-ANA at 2 3 6 10 11 12 13 14", "mean fluorescence intensity": "232 a.u."}
{"data": "Block 3", "target": "TAR DNA-binding protein 43, full length, His tag (TARDBP, Homo sapiens, UniProt Q13148, residues 1-414)", "method": "RNA Bind-n-Seq", "form": "RNA", "medium": "in vitro", "concentration": "20 nM", "setting": "6-mer, flanks averaged, single round", "added": "150 mM KCl", "reference": "input library", "reading": "higher = stronger binding"}
{"Oligonucleotide": "UACCCC", "6-mer enrichment (R)": 0.637}
{"Oligonucleotide": "AAUCGA", "6-mer enrichment (R)": 0.599}
{"Oligonucleotide": "AUGACA", "6-mer enrichment (R)": 0.702}
{"Oligonucleotide": "GUCGAA", "6-mer enrichment (R)": 0.867}
{"Oligonucleotide": "AUAUCU", "6-mer enrichment (R)": 0.548}
{"Oligonucleotide": "GCCUCG", "6-mer enrichment (R)": 0.843}
{"Oligonucleotide": "AAGUCA", "6-mer enrichment (R)": 0.601}
{"Oligonucleotide": "UAGUUC", "6-mer enrichment (R)": 0.557}
{"data": "Single results of other studies"}
{"Molecule": "GLIQYPTAW", "target": "HLA class I histocompatibility antigen, A alpha chain, allele A*80:01 (Homo sapiens, UniProt P04439)", "assay": "peptide-MHC binding", "test system": "peptide", "scale": "direction not given", "quantity": "z-score of log IC50", "value": 0.38}
{"note": "For quick reference, copied from above (block 1):"}
{"Oligonucleotide": "UAAGUUAUUUUGUACAGCUUUGUAAAUUCUUAACAUUUUUAUAUUGCACAUUUUAUGUUGUUUGGGUAAUUUGGUUCAUUAAGUACAUAGCUAAGGUAAUGAACAUCGUAAUUAUAGAUU", "bound/input enrichment [ratio]": 1.6}
